Measured values gathered from unrelated publications.
Every numbered part comes from another study and shows a few of its results, in no order. Values joined by “and” are separate records of one study, mostly repeats; a detail may differ.
Chain of UniProt Q9NRM7 (whole entry, looked up): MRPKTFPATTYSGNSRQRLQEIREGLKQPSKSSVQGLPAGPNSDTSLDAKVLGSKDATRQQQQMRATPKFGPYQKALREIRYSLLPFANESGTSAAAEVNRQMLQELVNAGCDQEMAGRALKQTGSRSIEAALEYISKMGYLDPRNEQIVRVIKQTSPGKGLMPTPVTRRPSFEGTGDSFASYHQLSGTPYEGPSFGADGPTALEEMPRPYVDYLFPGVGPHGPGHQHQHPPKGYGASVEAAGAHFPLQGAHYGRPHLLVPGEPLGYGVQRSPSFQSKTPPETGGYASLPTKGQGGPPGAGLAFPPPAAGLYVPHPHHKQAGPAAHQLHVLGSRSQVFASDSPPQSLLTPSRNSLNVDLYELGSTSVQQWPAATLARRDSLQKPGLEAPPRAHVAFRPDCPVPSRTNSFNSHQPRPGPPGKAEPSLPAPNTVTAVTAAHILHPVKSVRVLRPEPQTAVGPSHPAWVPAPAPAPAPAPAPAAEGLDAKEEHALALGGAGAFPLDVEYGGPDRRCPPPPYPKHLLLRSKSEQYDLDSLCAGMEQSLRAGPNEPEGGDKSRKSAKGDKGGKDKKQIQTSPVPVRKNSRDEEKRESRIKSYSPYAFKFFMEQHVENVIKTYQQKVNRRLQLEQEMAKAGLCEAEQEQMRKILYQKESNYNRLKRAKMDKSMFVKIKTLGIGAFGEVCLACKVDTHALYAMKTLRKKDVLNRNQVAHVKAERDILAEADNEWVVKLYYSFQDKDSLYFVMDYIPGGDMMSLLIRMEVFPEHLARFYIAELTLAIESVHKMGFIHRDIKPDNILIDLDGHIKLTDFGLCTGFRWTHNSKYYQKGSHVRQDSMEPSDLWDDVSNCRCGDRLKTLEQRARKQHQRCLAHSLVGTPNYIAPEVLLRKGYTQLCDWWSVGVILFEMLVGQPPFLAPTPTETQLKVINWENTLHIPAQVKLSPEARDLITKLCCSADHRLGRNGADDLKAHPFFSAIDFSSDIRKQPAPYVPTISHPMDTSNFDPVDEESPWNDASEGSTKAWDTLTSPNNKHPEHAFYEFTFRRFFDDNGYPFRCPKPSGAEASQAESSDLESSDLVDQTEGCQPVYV
Chain of UniProt P10721 (whole entry, unmodified, looked up): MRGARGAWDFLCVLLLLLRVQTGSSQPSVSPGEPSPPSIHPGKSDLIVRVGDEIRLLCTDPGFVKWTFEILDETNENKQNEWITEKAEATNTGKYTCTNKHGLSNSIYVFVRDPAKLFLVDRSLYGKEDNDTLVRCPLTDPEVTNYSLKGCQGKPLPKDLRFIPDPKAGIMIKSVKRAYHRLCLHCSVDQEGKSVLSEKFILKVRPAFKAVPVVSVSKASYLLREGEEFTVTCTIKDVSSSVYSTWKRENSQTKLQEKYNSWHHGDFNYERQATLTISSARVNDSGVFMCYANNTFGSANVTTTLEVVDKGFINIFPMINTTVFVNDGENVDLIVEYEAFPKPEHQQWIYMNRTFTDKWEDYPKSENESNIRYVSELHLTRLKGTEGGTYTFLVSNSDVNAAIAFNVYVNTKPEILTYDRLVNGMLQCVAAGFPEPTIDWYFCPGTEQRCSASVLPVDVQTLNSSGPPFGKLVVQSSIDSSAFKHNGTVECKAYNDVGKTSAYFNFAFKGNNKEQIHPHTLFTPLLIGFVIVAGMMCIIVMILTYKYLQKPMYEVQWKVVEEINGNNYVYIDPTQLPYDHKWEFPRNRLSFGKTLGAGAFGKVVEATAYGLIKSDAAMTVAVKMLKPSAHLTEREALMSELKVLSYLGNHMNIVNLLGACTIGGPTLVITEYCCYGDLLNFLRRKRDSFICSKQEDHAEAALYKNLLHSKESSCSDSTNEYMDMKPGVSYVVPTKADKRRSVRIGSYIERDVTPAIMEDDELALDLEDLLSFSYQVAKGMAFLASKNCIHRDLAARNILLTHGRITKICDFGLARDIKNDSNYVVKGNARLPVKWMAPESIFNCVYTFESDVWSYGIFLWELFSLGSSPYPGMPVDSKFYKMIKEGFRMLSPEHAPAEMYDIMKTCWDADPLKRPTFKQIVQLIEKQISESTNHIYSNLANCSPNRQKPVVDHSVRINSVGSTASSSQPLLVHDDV
Chain of UniProt P51813 (whole entry, looked up): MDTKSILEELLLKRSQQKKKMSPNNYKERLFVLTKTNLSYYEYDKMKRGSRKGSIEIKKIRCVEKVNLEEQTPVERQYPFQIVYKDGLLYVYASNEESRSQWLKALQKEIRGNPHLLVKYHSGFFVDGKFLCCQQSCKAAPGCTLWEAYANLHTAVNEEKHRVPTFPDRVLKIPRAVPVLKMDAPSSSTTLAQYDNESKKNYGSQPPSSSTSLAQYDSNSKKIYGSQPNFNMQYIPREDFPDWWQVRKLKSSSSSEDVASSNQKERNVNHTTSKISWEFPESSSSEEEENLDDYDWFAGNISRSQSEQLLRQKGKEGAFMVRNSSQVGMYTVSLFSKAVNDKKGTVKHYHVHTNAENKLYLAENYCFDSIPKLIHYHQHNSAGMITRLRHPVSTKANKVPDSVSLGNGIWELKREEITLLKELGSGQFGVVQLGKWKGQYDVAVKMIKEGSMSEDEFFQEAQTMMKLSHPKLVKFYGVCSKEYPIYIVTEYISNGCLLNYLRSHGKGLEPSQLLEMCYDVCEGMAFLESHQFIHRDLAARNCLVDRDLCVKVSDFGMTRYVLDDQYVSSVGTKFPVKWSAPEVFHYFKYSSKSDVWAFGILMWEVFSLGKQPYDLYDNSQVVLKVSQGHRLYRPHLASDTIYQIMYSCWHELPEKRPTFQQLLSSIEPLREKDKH
Chain of UniProt Q13043 (whole entry, looked up): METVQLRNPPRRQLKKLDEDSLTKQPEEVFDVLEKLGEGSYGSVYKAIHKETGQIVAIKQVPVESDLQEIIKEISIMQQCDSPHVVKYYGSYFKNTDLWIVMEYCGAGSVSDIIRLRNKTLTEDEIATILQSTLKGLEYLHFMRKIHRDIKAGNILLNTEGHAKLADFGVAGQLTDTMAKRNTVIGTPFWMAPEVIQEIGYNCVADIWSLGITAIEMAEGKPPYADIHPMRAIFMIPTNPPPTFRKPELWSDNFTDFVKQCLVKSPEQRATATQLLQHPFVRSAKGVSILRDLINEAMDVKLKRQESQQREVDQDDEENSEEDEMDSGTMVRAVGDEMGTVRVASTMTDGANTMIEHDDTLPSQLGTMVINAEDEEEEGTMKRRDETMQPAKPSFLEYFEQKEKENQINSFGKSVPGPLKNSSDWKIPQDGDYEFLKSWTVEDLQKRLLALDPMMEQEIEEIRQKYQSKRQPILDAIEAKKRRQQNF
Chain of UniProt Q86Z02 (whole entry, looked up): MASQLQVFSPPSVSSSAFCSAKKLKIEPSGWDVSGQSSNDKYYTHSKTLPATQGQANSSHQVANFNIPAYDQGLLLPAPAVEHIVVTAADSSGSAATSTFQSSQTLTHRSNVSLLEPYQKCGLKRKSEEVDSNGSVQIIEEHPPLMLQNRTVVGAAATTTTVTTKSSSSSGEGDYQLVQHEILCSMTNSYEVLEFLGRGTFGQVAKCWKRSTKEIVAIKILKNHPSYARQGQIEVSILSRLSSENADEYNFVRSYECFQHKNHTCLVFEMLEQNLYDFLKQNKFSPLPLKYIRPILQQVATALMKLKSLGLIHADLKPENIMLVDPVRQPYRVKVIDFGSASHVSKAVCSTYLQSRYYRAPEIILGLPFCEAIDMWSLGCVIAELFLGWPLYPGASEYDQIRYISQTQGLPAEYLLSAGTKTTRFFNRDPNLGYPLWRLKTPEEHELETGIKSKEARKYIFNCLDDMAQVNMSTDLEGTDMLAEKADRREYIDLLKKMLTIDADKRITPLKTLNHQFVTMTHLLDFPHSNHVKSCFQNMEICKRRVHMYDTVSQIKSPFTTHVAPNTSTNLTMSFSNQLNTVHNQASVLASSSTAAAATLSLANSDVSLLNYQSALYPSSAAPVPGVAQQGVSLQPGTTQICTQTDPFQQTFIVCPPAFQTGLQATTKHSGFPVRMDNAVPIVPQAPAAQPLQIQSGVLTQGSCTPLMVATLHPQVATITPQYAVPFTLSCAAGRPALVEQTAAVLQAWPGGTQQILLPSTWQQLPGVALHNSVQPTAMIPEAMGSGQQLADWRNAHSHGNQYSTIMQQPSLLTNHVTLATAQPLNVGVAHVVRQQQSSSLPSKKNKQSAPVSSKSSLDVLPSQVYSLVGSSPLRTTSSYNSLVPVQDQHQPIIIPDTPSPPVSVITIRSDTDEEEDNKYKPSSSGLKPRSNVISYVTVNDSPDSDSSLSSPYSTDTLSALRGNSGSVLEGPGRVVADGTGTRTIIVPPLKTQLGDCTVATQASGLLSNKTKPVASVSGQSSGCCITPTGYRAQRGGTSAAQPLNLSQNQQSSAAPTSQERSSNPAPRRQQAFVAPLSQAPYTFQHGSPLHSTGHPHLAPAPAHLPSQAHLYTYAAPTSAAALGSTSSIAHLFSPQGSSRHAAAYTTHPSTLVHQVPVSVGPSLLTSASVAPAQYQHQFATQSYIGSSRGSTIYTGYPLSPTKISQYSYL
Chain of UniProt P0C264 (whole entry, looked up): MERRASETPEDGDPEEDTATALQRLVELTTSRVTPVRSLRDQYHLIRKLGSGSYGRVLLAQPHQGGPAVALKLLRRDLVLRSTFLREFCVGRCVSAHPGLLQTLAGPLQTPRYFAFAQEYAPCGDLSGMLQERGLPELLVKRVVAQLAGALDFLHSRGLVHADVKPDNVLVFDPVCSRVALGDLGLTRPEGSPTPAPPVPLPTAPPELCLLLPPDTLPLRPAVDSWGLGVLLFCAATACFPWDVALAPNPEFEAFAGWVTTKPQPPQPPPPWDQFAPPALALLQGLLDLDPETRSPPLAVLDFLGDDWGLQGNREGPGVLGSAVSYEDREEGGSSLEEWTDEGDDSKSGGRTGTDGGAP

Set 1 — cell line: HH; method: CCK-8
SMILES: CC(C)(C)c1cnc(CSc2cnc(NC(=O)C3CCN(CCCCCCCCSc4cccc5c4C(=O)N(C4CCC(=O)NC4=O)C5=O)CC3)s2)o1 (centres unmarked)
The viability was 92% and 95.8% (10 nM).
150 nM — viability: 10.5% and 20%.
250 nM — viability: 0%.
50 nM — viability: 95% and 95.2%.

Set 2 — host: human; medium: microsomes or S9; concentration: 2 µM; time: 0.5 h
For `CCOC(=O)c1[nH]c(C)c(C(=O)Nc2n[nH]c3cc(Br)ccc23)c1C`, the remaining compound was 0.3%.
`CNC(=O)CN(c1ccc(C(C)C)cc1)S(C)(=O)=O` gave a remaining compound of 88.4%.
`Cc1ccc(S(=O)(=O)c2cn(CC3CCCO3)c(=O)n(-c3ccccc3)c2=O)cc1` (centres unmarked) gave a remaining compound of 10.4%.
For `COc1cc(=O)[nH]cc1C(=O)N(C)C1(Cc2ccccc2)CCCC1`, the remaining compound was 12.2%.

Set 3 — host: human patients; medium: plasma; time: 6 h
SMILES: COc1ccc(-c2c(Nc3ccccn3)[nH]c3c(C4=CCCCC4)c(-c4ccccc4)nn3c2=O)cc1
The “geometric mean concentration” was 18.8 ng/mL (measured: S-adenosylmethionine; 150 mg once daily).
For measured: methionine; 150 mg once daily: “geometric mean concentration” read 115000 ng/mL.
The “geometric mean concentration” was 78600 ng/mL (measured: methionine; 400 mg once daily).

Set 4 — method: competition with immobilised ligand; concentration: 1 µM
SMILES: Cc1c(NC(=O)c2cc(C(N)=O)nc3cc(F)ccc23)c(C(F)(F)F)nn1Cc1ccc(C#N)cc1
The remaining binding was 85% (BMX (Homo sapiens, UniProt P51813); cell-free assay).
The remaining binding was 100% (SBK3 (Homo sapiens, UniProt P0C264); cell-free assay).
The remaining binding was 90% (SNRK (Homo sapiens, UniProt Q9NRH2); cell-free assay).
HIPK1 (Homo sapiens, UniProt Q86Z02); cell-free assay — remaining binding: 73%.
Tyrosine-protein kinase ABL1, non-phosphorylated (ABL1, Homo sapiens, UniProt P00519, H396P); cell-free assay — remaining binding: 100%.
It gave 100% for remaining binding (CILK1 (Homo sapiens, UniProt Q9UPZ9); binding).
For STK4 (Homo sapiens, UniProt Q13043); cell-free assay: remaining binding read 84%.
EPHA5 (Homo sapiens, UniProt P54756); cell-free assay — remaining binding: 100%.
The remaining binding was 88% (FGFR2 (Homo sapiens, UniProt P21802); cell-free assay).
The remaining binding was 92% (KIT (Homo sapiens, UniProt P10721, L576P); cell-free assay).
It gave 72% for remaining binding (LATS2 (Homo sapiens, UniProt Q9NRM7); cell-free assay).
PIP5K1C (Homo sapiens, UniProt O60331); binding — remaining binding: 94%.
For EGFR (Homo sapiens, UniProt P00533, G719S); cell-free assay: remaining binding read 86%.

Single results of other studies
`CCOC(=O)[C@@H]1CSCC(=O)N[C@@H](CC)C(=O)N(CC(C)C)CC(=O)N[C@@H](CC(C)C)C(=O)N(C)[C@H](C)C(=O)N(C)[C@@H](C)C(=O)N[C@H](CC(C)C)C(=O)N(C)[C@H](C)C(=O)N[C@@H](CC(C)C)C(=O)N1C`: “log k' (60)” 0.634 (PRP-column chromatography).
`CC(C)n1cnc(-c2ccc(F)cc2)c1-c1ncc(C(=O)Nc2ccc(N3CCN(C)CC3)cc2)[nH]1` has a Coagulopathy incidence of 0% (IPF patients; 60 mg once daily, adverse event).

Some of these lines once more (set 4):
For STK4 (Homo sapiens, UniProt Q13043); cell-free assay: remaining binding read 84%.
EPHA5 (Homo sapiens, UniProt P54756); cell-free assay — remaining binding: 100%.
